Measurements of several laboratories.
Lines come from different studies, so protocols differ. Numbers after ± are the reported error.

CN(C)C(=N)N=C(N)N has a Cmax of 2120 ± 548 ng/mL (human, both sexes, plasma; oral, dose not given).
CNC(=O)c1cccc2cc(Oc3ccnc4cc(OCC5(N)CC5)c(OC)cc34)ccc12 gave a Cmax of 254 ± 148 ng/mL (human; oral, 10 mg, single dose, intermittent arm).
O=C(CCCCCCC(=O)Nc1ccccc1)NO has a Cmax of 3430 nM (human, serum; oral, 600 mg twice daily).
C=C(C)[C@@H]1CC[C@]2(NCCN3CCS(=O)(=O)CC3)CC[C@]3(C)[C@H](CC[C@@H]4[C@@]5(C)CC=C(C6=CC[C@@](CF)(C(=O)O)CC6)C(C)(C)[C@@H]5CC[C@]43C)[C@@H]12 gave a Cmax of 354 ng/mL (healthy human volunteers, plasma; oral, 200 mg, tablet, fasted state, geometric mean).
C=CC(=O)Nc1cc(Nc2ncc(C(=O)OC(C)C)c(-c3cn(C)c4ccccc34)n2)c(OC)cc1N(C)CCN(C)C gave a Cmax of 7.9 ng/mL (human, fasted; oral, 40 mg single dose, geometric mean).
COc1ccnc(C[S+]([O-])c2nc3ccc(OC(F)F)cc3[nH]2)c1OC (stereo not shown) gave a Cmax of 9320 ng/mL (human, CYP2C19 rapid metabolizers, plasma; oral, 40 mg/day, day 1).
With O=S(=O)(c1cccc2cnccc12)N1CCCNCC1 the Cmax was 101 ng/mL (human, plasma; intravenous, 30 mg).
The Cmax of C#Cc1cccc(Nc2ncnc3cc(OCCOC)c(OCCO)cc23)c1 is reported as 317 ± 166 ng/mL (human, plasma; erlotinib, day 14, normalised to erlotinib 150 mg).
NC1(C(=O)N[C@@H](CCO)c2ccc(Cl)cc2)CCN(c2ncnc3[nH]ccc23)CC1 has a Cmax of 1220 ng/mL (human, plasma; 400 mg twice daily, day 8, geometric mean).
The Cmax of Cc1ccc(NC(=O)c2ccc(CN3CCNCC3)cc2)cc1Nc1nccc(-c2cccnc2)n1 is reported as 294 ng/mL (human patients, plasma; oral, 400 mg of imatinib, first dose, day 1 of cycle 1).
CCCC[C@H](NC(C)=O)C(=O)N[C@H]1CCC(=O)NC[C@@H](C(=O)N[C@@H](Cc2c[nH]c3ccccc23)C(N)=O)NC(=O)[C@H](CCCNC(=N)N)NC(=O)[C@@H](Cc2ccccc2)NC(=O)[C@H](Cc2c[nH]cn2)NC1=O gave a Cmax of 23 ng/mL (healthy human, both sexes, plasma; subcutaneous, 1.0 mg once daily, day 1, arithmetic mean).
For CC(C)NC[C@@H](C(=O)N1CCN(c2ncnc3c2[C@H](C)C[C@H]3O)CC1)c1ccc(Cl)cc1, the Cmax was 80 ng/mL (human, severe hepatic impairment (Child-Pugh), plasma; oral, 100 mg single dose, geometric mean).
Cc1[nH]c2ccccc2c1CCNCc1ccc(/C=C/C(=O)NO)cc1 gave a Cmax of 14 ng/mL (human, plasma; oral, 20 mg, fed, normal breakfast).
CC(=O)O[C@H]1C(=O)[C@@]2(C)[C@H]([C@H](OC(=O)c3ccccc3)[C@]3(O)C[C@H](OC(=O)[C@H](O)[C@@H](NC(=O)c4ccccc4)c4ccccc4)C(C)=C1C3(C)C)[C@]1(OC(C)=O)CO[C@@H]1C[C@@H]2O has a Cmax of 1760 ± 920 nM (human patients on nelfinavir alone, plasma; iv, 100 mg/m^2 over 3 h, cycle 1).
C=CC[C@@H]1/C=C(\C)C[C@H](C)C[C@H](OC)[C@H]2O[C@@](O)(C(=O)C(=O)N3CCCC[C@H]3C(=O)O[C@H](/C(C)=C/[C@@H]3CC[C@@H](O)[C@H](OC)C3)[C@H](C)[C@@H](O)CC1=O)[C@H](C)C[C@@H]2OC gave a Cmax of 37.1 ng/mL (healthy human subjects, whole blood; oral, 5 mg single dose, arithmetic mean, together with: isavuconazole 200 mg once daily after loading).
C=CC(=O)N1CCC([C@@H]2CCNc3c(C(N)=O)c(-c4ccc(Oc5ccccc5)cc4)nn32)CC1 gave a Cmax of 353 ng/mL (human; oral, 480 mg single dose, mean).
N#Cc1ccnc(N2C(=O)CC[C@H]2C(=O)N(c2cncc(F)c2)[C@H](C(=O)NC2CC(F)(F)C2)c2ccccc2Cl)c1 gave a Cmax of 8210 ng/mL (human patients, plasma; oral, 500 mg once daily, induction cycle 1 day 14, mean, together with: chemotherapy).
For Cc1cccc(C)c1N(CC(=O)Nc1ccc(-c2ncon2)cc1)C(=O)C1CCS(=O)(=O)CC1, the Cmax was 3950 ng/mL (human male, plasma; oral, 1200 mg single dose, arithmetic mean, alone).
For CON(C)C(=O)N1N=C(c2cc(F)ccc2F)S[C@@]1(CCCN)c1ccccc1, the Cmax was 70.3 ng/mL (human patients, plasma; intravenous, 3.6 mg/m2, cycle 1 day 3).
Cc1cc(C)c2c(c1)[C@@H](N(Cc1cc(C(F)(F)F)cc(C(F)(F)F)c1)c1nnn(C)n1)CCCN2C[C@H]1CC[C@H](C(=O)O)CC1 gave a Cmax of 1290 ng/mL (healthy humans, plasma; oral, 130 mg once daily, day 22, geometric mean, together with: gemfibrozil 600 mg twice daily).
CC[C@H](C)[C@@H]1NC(=O)[C@H](CCCNC(=N)N)NC(=O)[C@H](CC(=O)O)NC(=O)[C@H](CC(C)C)NC(=O)[C@H](CCCCN)NC(=O)[C@H](CC(C)C)NC(=O)CNC(=O)[C@H](Cc2ccccc2)NC(=O)[C@@H](NC(=O)CNC(=O)[C@H](CCCCN)NC(=O)[C@H](CO)NC(=O)[C@H](CC(C)C)NC(=O)CNC(=O)[C@H](CCCCN)NC(=O)[C@H](CCCCN)NC(=O)[C@H](CC(N)=O)NC(=O)[C@H](C)NC(=O)CNC(=O)[C@H](CCCCN)NC(=O)[C@H](Cc2ccc(O)cc2)NC(=O)[C@H](CCCCN)NC(=O)[C@H](CCCNC(=N)N)NC(=O)[C@H](C)NC(=O)[C@H](CC(N)=O)NC(=O)[C@@H]2CCCN2C(=O)[C@H](Cc2c[nH]cn2)NC(=O)[C@H](CCC(=O)O)NC(=O)[C@H](CCC(N)=O)NC(=O)CNC(=O)[C@@H]2CCCN2)CSSC[C@@H](C(=O)O)NC(=O)CNC(=O)[C@H](CC(C)C)NC(=O)CNC(=O)[C@H](CO)NC(=O)[C@H](CCSC)NC(=O)[C@H](CO)NC(=O)CNC1=O has a Cmax of 7.18 ng/mL (ECLA; human, plasma; subcutaneous, 15 µg/kg once daily, day 1).
For COc1cc2c(cc1OC)[C@H]1CC(=O)[C@H](CC(C)C)CN1CC2 (racemic), the Cmax was 0.29 ng/mL (human CYP2D6 extensive metabolizers, plasma; oral, 25 mg, fasted, geometric mean).
The Cmax of C=CC(=O)Nc1cc(Nc2ncc(C(=O)OC(C)C)c(-c3cn(C)c4ccccc34)n2)c(OC)cc1N(C)CCN(C)C is reported as 75.3 ng/mL (human, plasma; oral, 160 mg, geometric mean, alone).
For O=C(CCCCCCC(=O)Nc1ccccc1)NO, the Cmax was 1550 nM (human, serum; oral, 400 mg three times daily, 3 days, median, together with: idarubicin).
The Cmax of CS(=O)(=O)OC[C@H](O)[C@@H](O)COS(C)(=O)=O is reported as 435000 ng/mL (human patients, plasma; intravenous infusion, 14 g/m^2, day -4, 2-hour infusion).
COC(=O)N[C@H](C(=O)N1CCC[C@H]1c1nc(-c2ccc3c(c2)O[C@@H](c2ccccc2)n2c-3cc3cc(-c4c[nH]c([C@@H]5CCCN5C(=O)[C@@H](NC(=O)OC)C(C)C)n4)ccc32)c[nH]1)C(C)C gave a Cmax of 140 nM (healthy adult humans, plasma; oral, 50 mg, fixed-dose combination with grazoprevir 100 mg, fasted).
For O=C(Nc1c(Cl)cncc1Cl)c1ccc(OC(F)F)c(OCC2CC2)c1, the Cmax was 3.72 ng/mL (human adults, ≥18 years, plasma; topical, 0.3% cream once daily, day 15).
CCc1cc2c(cc1N1CCC(N3CCOCC3)CC1)C(C)(C)c1[nH]c3cc(C#N)ccc3c1C2=O has a Cmax of 480 ng/mL (LC-MS, noncompartmental; human patients under sample A years, plasma; oral, 300 mg/day, cycle 1 day 21, geometric mean).
With CC(=O)c1c(C)c2cnc(Nc3ccc(N4CCNCC4)cn3)nc2n(C2CCCC2)c1=O the Cmax was 92 ± 34 ng/mL (human patients, plasma; oral, 75 mg/m^2 single dose, day 1).
With CC(C)[C@@H](CS(=O)(=O)C(C)C)N1C(=O)[C@@](C)(CC(=O)O)C[C@H](c2cccc(Cl)c2)[C@H]1c1ccc(Cl)cc1 the Cmax was 410 ng/mL (human, plasma; oral, 60 mg, old tablet, fasted, arithmetic mean).
For CC(C)(Sc1ccncc1-c1ccc(C#N)c2ccccc12)C(=O)O, the Cmax was 7.54 ng/mL (human, plasma; oral, 5 mg, together with: febuxostat 80 mg).
CCOc1ccc(Cc2cc([C@]34OC[C@](CO)(O3)[C@@H](O)[C@H](O)[C@H]4O)ccc2Cl)cc1 gave a Cmax of 6.1 to 5160 ng/mL (human, plasma; oral, 0.5 to 300 mg, pooled data).
CCCCC1(CCCC)CN(c2ccccc2)c2cc(SC)c(OCC(=O)N[C@@H](C(=O)NCC(=O)O)c3ccccc3)cc2S(=O)(=O)C1 has a Cmax of 0.17 ng/mL (LC-MS/MS; human, plasma; oral, 5 mg, single dose, before breakfast).
CC[C@H](C)[C@H](NC(=O)[C@H](CC(C)C)NC(=O)[C@H](Cc1c[nH]c2ccccc12)NC(=O)[C@H](C)NC(=O)[C@@H](NC(=O)[C@H](Cc1ccccc1)NC(=O)[C@H](CC(=O)O)NC(=O)[C@H](CCCNC(=N)N)NC(=O)[C@H](C)NC(=O)[C@H](C)NC(=O)[C@H](CC(C)C)NC(=O)[C@H](C)NC(=O)[C@H](CC(=O)O)NC(=O)[C@H](CC(C)C)NC(=O)[C@@H](NC(=O)[C@@H](NC(=O)[C@H](C)NC(=O)[C@H](CC(C)C)NC(=O)[C@H](CCC(=O)O)NC(=O)[C@H](CO)NC(=O)[C@H](CO)NC(=O)[C@H](Cc1ccccc1)NC(=O)[C@@H](NC(=O)CNC(=O)[C@H](CCC(=O)O)NC(=O)CNC(=O)[C@@H](N)Cc1cnc[nH]1)[C@@H](C)O)[C@@H](C)O)[C@@H](C)CC)[C@@H](C)CC)C(=O)N[C@@H](C)C(=O)N[C@H](C(=O)N[C@@H](CCCCN)C(=O)N[C@H](C(=O)N[C@H](C(=O)N[C@@H](CC(=O)O)C(=O)N[C@@H](CCCCN)C(=O)N[C@@H](CCCCN)C(=O)N[C@@H](CCCCN)C(=O)N[C@@H](CCCCN)C(=O)N[C@@H](CCCCN)C(=O)N[C@@H](CCCCN)C(N)=O)[C@@H](C)O)[C@@H](C)CC)[C@@H](C)O gave a Cmax of 0.223 nM (immunoaffinity LC-MS/MS; healthy human subjects, plasma; subcutaneous, 5 mg once weekly, day 36 after 6 doses, steady state, geometric mean).
For Nc1cccc2c1C(=O)N(C1CCC(=O)NC1=O)C2=O (stereo not shown), the Cmax was 60.8 ng/mL (healthy male humans, plasma; oral, dose not given, geometric mean, together with: fluvoxamine).
Nc1ccn([C@@H]2O[C@H](CO)[C@@H](O)C2(F)F)c(=O)n1 gave a Cmax of 7930 ng/mL (human cancer patients, plasma; intravenous, 600 mg/m^2, cycle 1 day 1, given alone).
O=C(CCCCCCC(=O)Nc1ccccc1)NO gave a Cmax of 643 nM (human, serum; oral, 300 mg, median).
The Cmax of CNc1nc(Nc2ccc(-n3cnc(C)n3)c(OC)c2)nc2c1CC[C@H]2c1ccc(F)cc1 is reported as 670 ng/mL (human; oral, 100 mg once daily, day 28, multiple ascending dose, geometric mean).
The Cmax of N#C[C@@H]1C[C@@H]2C[C@@H]2N1C(=O)[C@@H](N)C12CC3CC(CC(O)(C3)C1)C2 is reported as 87 ng/mL (healthy human subjects, plasma; oral, 10 mg, day 10, geometric mean, together with: diltiazem extended-release 360 mg).
CC#CC(=O)N1CC[C@@H](n2c(=O)n(-c3ccc(Oc4ccccc4)cc3)c3c(N)ncnc32)C1 gave a Cmax of 140 to 3300 nM (human, plasma; oral, 20 to 600 mg, dose escalation).
For CO[C@H]1C[C@@H]2CC[C@@H](C)[C@@](O)(O2)C(=O)C(=O)N2CCCC[C@H]2C(=O)O[C@H]([C@H](C)C[C@@H]2CC[C@@H](OCCO)[C@H](OC)C2)CC(=O)[C@H](C)/C=C(\C)[C@@H](O)[C@@H](OC)C(=O)[C@H](C)C[C@H](C)/C=C/C=C/C=C/1C, the Cmax was 15.8 ng/mL (healthy adult human, blood; 0.75 mg single dose, geometric mean, together with: ritonavir-containing 3D regimen).
The Cmax of O=C(NCc1ccncc1)C12CC3CC(C1)CC(c1ccc(Cl)cc1)(C3)C2 is reported as 5560 ± 1380 ng/mL (human patients, plasma; oral, 750 mg, day 1 and day 28 combined).
CCN1CCN(Cc2ccc(Nc3ncc(F)c(-c4cc(F)c5nc(CO)n(C(C)C)c5c4)n3)nc2)CC1 gave a Cmax of 45.7 ng/mL (human patients, plasma; oral, 150 mg, single dose, geometric mean).

A few entries again:
C=CC[C@@H]1/C=C(\C)C[C@H](C)C[C@H](OC)[C@H]2O[C@@](O)(C(=O)C(=O)N3CCCC[C@H]3C(=O)O[C@H](/C(C)=C/[C@@H]3CC[C@@H](O)[C@H](OC)C3)[C@H](C)[C@@H](O)CC1=O)[C@H](C)C[C@@H]2OC gave a Cmax of 37.1 ng/mL (healthy human subjects, whole blood; oral, 5 mg single dose, arithmetic mean, together with: isavuconazole 200 mg once daily after loading).
C=C(C)[C@@H]1CC[C@]2(NCCN3CCS(=O)(=O)CC3)CC[C@]3(C)[C@H](CC[C@@H]4[C@@]5(C)CC=C(C6=CC[C@@](CF)(C(=O)O)CC6)C(C)(C)[C@@H]5CC[C@]43C)[C@@H]12 gave a Cmax of 354 ng/mL (healthy human volunteers, plasma; oral, 200 mg, tablet, fasted state, geometric mean).
The Cmax of Cc1ccc(NC(=O)c2ccc(CN3CCNCC3)cc2)cc1Nc1nccc(-c2cccnc2)n1 is reported as 294 ng/mL (human patients, plasma; oral, 400 mg of imatinib, first dose, day 1 of cycle 1).
O=C(CCCCCCC(=O)Nc1ccccc1)NO has a Cmax of 3430 nM (human, serum; oral, 600 mg twice daily).
